Measurements of several laboratories.
Each numbered part is a random draw from the data of one study; scales do not carry over between parts. Changes are numbered by the printed parent chain.

Series 1
Target: Centromere-binding protein 1, full length, N-terminal tag (CBF1, Saccharomyces cerevisiae, UniProt P17106, residues 1-351)
UniProt P17106, sequence (whole entry, looked up): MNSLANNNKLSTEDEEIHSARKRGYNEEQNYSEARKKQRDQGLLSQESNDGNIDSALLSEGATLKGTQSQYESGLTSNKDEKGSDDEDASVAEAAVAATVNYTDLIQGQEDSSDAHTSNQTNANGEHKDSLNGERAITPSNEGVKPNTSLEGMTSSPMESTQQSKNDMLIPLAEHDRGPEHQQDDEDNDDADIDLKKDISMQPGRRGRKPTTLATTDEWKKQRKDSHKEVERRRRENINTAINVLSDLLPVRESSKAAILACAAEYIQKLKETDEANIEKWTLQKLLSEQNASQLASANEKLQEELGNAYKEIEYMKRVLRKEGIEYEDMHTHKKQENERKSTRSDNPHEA
Technique: protein-binding microarray
Form: double-stranded DNA, one strand shown
Medium: in vitro
Concentration: 0.8 µM
Setting: whole 60-bp probe, no competitor
Reading: higher = stronger binding
All sequences stand within: … GTCTTGATTCGCTTGACGCTGCTG
| Strand | fluorescence intensity [a.u.] |
| --- | --- |
| CTACTTACAGTACATCACGCTGCAATAGATCTATTC | 682 |
| GAAAAATATCATTTTCATAAGTCACATGATAAATAG | 8540 |
| CTATTTTGGTGAGGGTGCGTGACTTGAAACTAATTC | 2200 |
| GAACCTAGTGTCGGCCACCTGATAAAGGTTTTTTAG | 657 |
| CTATTCGTGGATGGTCATGCGTATTTGAAAACATTC | 875 |
| CTAGAAAATACTGCCCACGCAATTGTCCCTTTCTTC | 481 |
| CTACAGGCAGCAAAAAACGTGATAGTAAAGCTATTC | 1420 |
| GAATTCCAATTTGTTGTTATTCCCTATGCCGCATAG | 489 |
| CTACATCAAATTAATCACGTGCTTTTTAAAAAATTC | 20900 |
| CTAATGAGCTTTCCTCGCGTCACGGTGTCAGTATTC | 1160 |
| GAAGACGCGTTCCGTGACACGTTAAAGGATAATTAG | 718 |
| CTAGAGTGCGCGGTATACGTGCGGCCCTAAACGTTC | 491 |
| CCTAACTACTATAGTCACAACAAATAGCTTCGTACA | 523 |
| CTACCAGTTATGATTGACGTCATTCTGAGTTACTTC | 514 |

Series 2
Target: RNA binding protein fox-1 homolog 2, RRM domain, GST-SBP tag (RBFOX2, Homo sapiens, UniProt O43251-10, residues 100-194)
Technique: RNA Bind-n-Seq
Form: RNA
Medium: in vitro
Concentration: 365 nM
Setting: natural RNA segment, single round, ends assumed
Relative to: no-protein control
Reading: higher = stronger binding
All sequences stand within: GGGAGUUCUACAGUCCGACGAUC … UGGAAUUCUCGGGUGCCAA
Residues (chain): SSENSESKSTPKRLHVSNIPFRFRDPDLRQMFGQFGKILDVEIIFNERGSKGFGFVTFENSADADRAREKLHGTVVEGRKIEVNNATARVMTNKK
| Strand | RBNS enrichment (R) |
| --- | --- |
| GGUGGUUGGCCAGAGAUGGGGAACAGCCAGGUGCCCCAGUCCUCUGAUUUUUCCUCCAUCCUGCUUACCACCUCCCUGGGUACUUACAGCCUUCUCUUGGGAACAGCCGG | 0.23 |
| UCCAUUUUCUAGGCUUAAAAGAUAUAUUUUUGAUAUAUUUAAUUAUAUUCUCUACACUCCAGCAUUAAUAUGUCUGUUUAAAAAUUACUAAUUCUCAAAUGGCUCAAGAA | 1.19 |
| CAAGACCCCAAACAGUACUUUUACUUUGUUUGUACAAAAACAAAGACAUAUAGCCAAUACAAAUCAAAUGCCGGAGGUGUUUGAUGCCAUAUUUGCAAAUUGCCAUCUAU | 0.355 |
| ACAAGUACCAUUGUUGAUUGAUAAGUAGAGAUACAUUUUUUAUGAUGUUCAUCACAGUGUGGUAAGGUUGCAAAUUCAAAACAUGUCACCCAAGCUCUGUUCAUGUUUUU | 0.351 |
| GCCCGCUCCCAGGAGGCCAGGGCAGGCCUGCGUGGGCUGGAGGCGGGCGAGGCCGGCCCACCCCCUCGCUGGCACUGACUUUGCCUUGAACAGACCCCCCGACCCUCCCC | 2.05 |
| AUAGAAUAUAUAAAACAUAACUUCAAGCUUAUGUCUUCUUUUUAAAACAUCUGAAGUAUGGGACGCCCUGGCCGUUCCAUCCAGUACUAAAUGCUUACCGUGUGACCCUU | 0.302 |
| GAAGCUUUUAUUGUUACACUUCUUACCCUCUUUCAUAUCCAAAAUUGCCAAGUGCCUCUGCAGACUGGCCUUCCACCCUAGGCGCGGGCAGUUGGCAGAAGAAAGGCAGG | 0.355 |
| UUCACUCAAACUUCUUUAAAUGGGGAAAAAUAUUUGUGACUCUGUGGCUGGCAGAAGAAAUAAGCCCAUGCAAGUGGAAGGGCUGCUUUGUCAGGAGGUUGUGGAAUUUC | 1.83 |
| UGGCUGAGCAGCCGCUUUUUAGACGUUAUCAUUUUGCCUCAUGUUGGAGGACUUUAUGGAAUUUAAGAAAUACAUUUUGUGUGCAUAUUGUUUCAUAGCAAGAAUUCGUU | 0.605 |
| AUGAAUGAAGAGUAAAAUAAUUACAGGAAAAGAAUGCAUGAUUUUUCAUUGUCACACCAAAUAACCAGUUGGACAAUAUUGCAUUUUCAAAAUGGAGAGUUAUUUAAAGU | 17 |
| GCACAGCAGCUUGUCAGAGUGAGAACUGUCCUGGGGCCAGAGACUAACAUGCCCAGGUGGUGUCGGCUCAGAGGAUCCUAGCACCAUCUUAAGCAGGUGGGAGGCAGGGA | 0.409 |
| AGGUUUCUGUAAACCUGAAGCCUUGGUGCAUAGAGGGCUUUGUGGAAGCACAUAGUCAGCGGCUGGGGUUGAAGAGUGAGUGUCACCAUGCCUUUUAGUGGAGACCUGCA | 1.4 |

Series 3
Target: CCND1, cyclin fold, Cln2 fusion (human)
Technique: yeast growth competition, sequencing
Medium: yeast
Setting: weak parent motif
Relative to: not given
Reading: higher = stronger binding
Starting sequence: WEE1 docking peptide (human); HKTFRKLRLFDTP; partner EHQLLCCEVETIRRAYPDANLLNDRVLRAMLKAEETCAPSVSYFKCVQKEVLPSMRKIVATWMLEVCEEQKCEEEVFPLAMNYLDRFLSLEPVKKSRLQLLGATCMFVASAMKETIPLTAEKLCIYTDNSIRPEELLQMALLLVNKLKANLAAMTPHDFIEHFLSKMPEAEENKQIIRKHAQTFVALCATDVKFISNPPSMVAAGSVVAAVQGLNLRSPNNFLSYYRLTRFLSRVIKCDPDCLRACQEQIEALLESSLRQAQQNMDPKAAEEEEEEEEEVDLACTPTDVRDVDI
| Substitution | normalised enrichment score |
| --- | --- |
| K2F | 0.244 |
| K2T | 0.672 |
| F4Q | 0.106 |
| H1S | 0.571 |
| H1G | -0.609 |
| D11Q | 1.67 |
| L7Q | -0.0154 |
| R5A | -0.993 |
| K2A | 0.293 |
| F10W | -0.0157 |
| R5V | -0.311 |
| R5A L7A | 0.53 |
| H1V | -0.57 |
| R5E | 1.18 |
| K2R | 0.749 |
| P13D | 0.385 |
| L7E | -0.0827 |
| D11I | -0.295 |
| H1E | 0.37 |
| R8Y | 0.818 |
| R8W | 1.11 |
| L9D | -0.0983 |
| P13H | -0.698 |
| P13N | 0.375 |
| R8E | 0.856 |

Series 4
Target: Histone acetyltransferase KAT6A, winged helix 1, GST fusion (KAT6A, Homo sapiens, UniProt Q92794, residues 1-85)
Technique: protein binding microarray
Form: double-stranded DNA, one strand shown
Medium: in vitro
Concentration: not given
Setting: 8-mer, flanks averaged, mean of 2 arrays, mostly near background
Relative to: not given
Reading: higher = stronger binding
Target sequence (chain): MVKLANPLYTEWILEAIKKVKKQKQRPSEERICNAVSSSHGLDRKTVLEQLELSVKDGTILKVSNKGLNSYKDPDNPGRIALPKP
| Strand | E-score |
| --- | --- |
| ACCCCGTC | 0.265 |
| CCCGGGTC | 0.371 |
| ATTACAAC | -0.178 |
| ACTCCCCC | 0.0581 |
| AGCAGGCT | -0.0623 |
| TAACAATA | -0.062 |
| TGGCGACA | -0.0598 |
| ACTACTGA | -0.0628 |
| CACAAGCA | -0.349 |
| AAACATCA | -0.154 |
| CGTACAGA | -0.0239 |
| AGTACGGA | 0.204 |
| GTCGCTAA | 0.161 |
| CGAATCAA | -0.149 |
| CGCTCACG | 0.36 |
| ACACGTAT | -0.0813 |
| AAAAGCTA | -0.115 |
| CGAGCTAA | -0.0468 |
| GGGTGGAC | -0.0884 |
| CAGTGTAG | -0.105 |
| AGTACTAT | -0.119 |
| CCGGTCCG | 0.365 |
| AAGAAATA | -0.186 |
| AAAACACG | 0.136 |
| GGAACTGA | -0.0459 |

A few entries again (series 2):
| Strand | RBNS enrichment (R) |
| --- | --- |
| CAAGACCCCAAACAGUACUUUUACUUUGUUUGUACAAAAACAAAGACAUAUAGCCAAUACAAAUCAAAUGCCGGAGGUGUUUGAUGCCAUAUUUGCAAAUUGCCAUCUAU | 0.355 |
| GGUGGUUGGCCAGAGAUGGGGAACAGCCAGGUGCCCCAGUCCUCUGAUUUUUCCUCCAUCCUGCUUACCACCUCCCUGGGUACUUACAGCCUUCUCUUGGGAACAGCCGG | 0.23 |
| GAAGCUUUUAUUGUUACACUUCUUACCCUCUUUCAUAUCCAAAAUUGCCAAGUGCCUCUGCAGACUGGCCUUCCACCCUAGGCGCGGGCAGUUGGCAGAAGAAAGGCAGG | 0.355 |
| AUGAAUGAAGAGUAAAAUAAUUACAGGAAAAGAAUGCAUGAUUUUUCAUUGUCACACCAAAUAACCAGUUGGACAAUAUUGCAUUUUCAAAAUGGAGAGUUAUUUAAAGU | 17 |
| UCCAUUUUCUAGGCUUAAAAGAUAUAUUUUUGAUAUAUUUAAUUAUAUUCUCUACACUCCAGCAUUAAUAUGUCUGUUUAAAAAUUACUAAUUCUCAAAUGGCUCAAGAA | 1.19 |
